Experimental data of several laboratories.
Every numbered part comes from another study and shows a few of its results, in no order. Substitutions count along the parent as printed.

Sample 1
Target: ABI1, truncated, D143A, DHFR fusion (Arabidopsis thaliana)
Technique: DHFR PCA, deep sequencing
Matrix: yeast
Notes: methotrexate growth selection, single substitutions
Together with: (+)-ABA 58 µM
Baseline: wild-type fitted maximum
Reading: higher = stronger binding
Parent: PYL1, truncated, DHFR fusion (Arabidopsis thaliana); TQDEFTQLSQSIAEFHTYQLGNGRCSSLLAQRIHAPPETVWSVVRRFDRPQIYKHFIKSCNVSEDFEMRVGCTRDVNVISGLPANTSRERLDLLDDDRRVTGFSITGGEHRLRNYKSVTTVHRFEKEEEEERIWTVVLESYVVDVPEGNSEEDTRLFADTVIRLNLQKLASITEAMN; partner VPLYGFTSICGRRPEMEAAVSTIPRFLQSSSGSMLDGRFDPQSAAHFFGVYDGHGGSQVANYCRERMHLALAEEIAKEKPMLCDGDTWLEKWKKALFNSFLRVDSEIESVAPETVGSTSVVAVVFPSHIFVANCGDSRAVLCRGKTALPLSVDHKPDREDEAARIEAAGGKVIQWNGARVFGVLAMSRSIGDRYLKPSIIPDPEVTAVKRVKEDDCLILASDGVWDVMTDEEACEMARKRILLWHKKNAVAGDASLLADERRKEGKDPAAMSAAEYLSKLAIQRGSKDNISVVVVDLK
| Substitution | relative binding score |
| --- | --- |
| V121F | 7.11% |
| D153C | 36.9% |
| V40A | 15.7% |
| R46D | 29.4% |
| R113K | 101% |
| S59T | 84.6% |
| L156P | 1.13% |
| C25G | 13.6% |
| R123T | 94.3% |
| W134S | 99.5% |
| P146T | 30% |

Sample 2
Target: CCNB2, cyclin fold, Cln2 fusion (human)
Technique: yeast growth competition, sequencing
Matrix: yeast
Notes: weak parent motif
Baseline: not given
Reading: higher = stronger binding
Parent: E2F1 docking peptide (human); PPVKRRLDLETDH; partner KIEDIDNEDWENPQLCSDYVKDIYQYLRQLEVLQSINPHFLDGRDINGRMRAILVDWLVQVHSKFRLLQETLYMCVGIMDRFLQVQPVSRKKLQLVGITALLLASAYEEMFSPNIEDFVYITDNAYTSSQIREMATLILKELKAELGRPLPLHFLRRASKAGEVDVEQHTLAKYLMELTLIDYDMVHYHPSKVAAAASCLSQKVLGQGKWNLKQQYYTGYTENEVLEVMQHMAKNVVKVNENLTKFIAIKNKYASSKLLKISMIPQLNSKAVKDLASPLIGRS
| Substitution | normalised enrichment score |
| --- | --- |
| HPVKRRLDLETDH [P1H] | 0.65 |
| PPVKDRLDLETDH [R5D] | 0.0638 |
| PPVKRRLDLCTDH [E10C] | 0.6 |
| PLVKRRLDLETDH [P2L] | 0.327 |
| PPVKRRLDLEHDH [T11H] | 0.269 |
| PPVKRRLDFETDH [L9F] | 3.6 |
| PPVKRRRDLETDH [L7R] | -0.102 |
| SPVKRRLDLETDH [P1S] | 0.0665 |

Sample 3
Substance: PhoQ, residues 284 288 289 292 302 303 TASMAF
Technique: Sort-seq
Measured: YFP reporter
Matrix: E. coli
Notes: PhoQ-PhoP variant library
Together with: 10 µM Mg2+
Baseline: high Mg2+ state
Reading: higher = stronger signaling
| target | fold induction |
| --- | --- |
| PhoP, residues 12 14 15 18 19 ICWRQ (Escherichia coli, UniProt P23836) | 9.24 |
| PhoP, residues 12 14 15 18 19 VHTVL (Escherichia coli, UniProt P23836) | 8.87 |
| PhoP, residues 12 14 15 18 19 TQCLL (Escherichia coli, UniProt P23836) | 14 |

Sample 4
Target: Histone acetyltransferase KAT6A, winged helix 1, GST fusion (KAT6A, Homo sapiens, UniProt Q92794, residues 1-85)
Technique: protein binding microarray
Molecule type: double-stranded DNA, one strand shown
Matrix: in vitro
Tested at: not given
Notes: 8-mer, flanks averaged, mean of 2 arrays, mostly near background
Baseline: not given
Reading: higher = stronger binding
Target sequence (chain): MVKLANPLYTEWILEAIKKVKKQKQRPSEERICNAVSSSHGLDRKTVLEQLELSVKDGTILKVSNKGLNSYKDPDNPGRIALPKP
| Strand | E-score |
| --- | --- |
| GAAAATCC | -0.176 |
| AAGTTGTC | -0.0555 |
| GTGTCTCA | -0.138 |
| AAACGGTG | -0.0648 |
| AATCCGCG | 0.304 |
| ATCGTATG | -0.192 |
| AGGTCGGC | 0.187 |
| AACATCCA | -0.186 |
| CCCACAGA | -0.247 |
| AATAAGCT | 0.0306 |
| CAGCCCAC | -0.127 |
| ACACGATG | -0.066 |
| CAACTTCC | -0.0965 |
| ACGGGGCT | 0.157 |
| AGAGTCTA | -0.171 |
| CTCACCTC | -0.201 |
| GAGTTATC | -0.065 |
| CATTCCTC | -0.152 |
| ATGCAGAC | -0.206 |
| AGCACATG | -0.0881 |
| ATCCATTG | -0.181 |

Some of these lines once more (sample 2):
| Substitution | normalised enrichment score |
| --- | --- |
| PPVKDRLDLETDH [R5D] | 0.0638 |
| PPVKRRLDLCTDH [E10C] | 0.6 |
| PLVKRRLDLETDH [P2L] | 0.327 |
| PPVKRRLDLEHDH [T11H] | 0.269 |
| PPVKRRLDFETDH [L9F] | 3.6 |
| PPVKRRRDLETDH [L7R] | -0.102 |
| SPVKRRLDLETDH [P1S] | 0.0665 |
